# Results pooled from the literature.
# Every numbered part comes from another study and shows a few of its results, in no order.

# Study 1
# Target: Interferon regulatory factor 7, full length, phosphomimetic (IRF7, Homo sapiens, UniProt Q92985, residues 1-503, S471D/S472D/S475D/S476D/S477D/S483D/S484D/S487D)
# Technique: protein-binding microarray
# Form: double-stranded DNA, one strand shown
# Matrix: in vitro
# Concentration: 2200 nM top
# Notes: 60-bp whole probe
# Together with: salmon DNA 0.4 mg/ml
# Relative to: random background probes
# Direction: higher = stronger binding
# Target sequence (chain): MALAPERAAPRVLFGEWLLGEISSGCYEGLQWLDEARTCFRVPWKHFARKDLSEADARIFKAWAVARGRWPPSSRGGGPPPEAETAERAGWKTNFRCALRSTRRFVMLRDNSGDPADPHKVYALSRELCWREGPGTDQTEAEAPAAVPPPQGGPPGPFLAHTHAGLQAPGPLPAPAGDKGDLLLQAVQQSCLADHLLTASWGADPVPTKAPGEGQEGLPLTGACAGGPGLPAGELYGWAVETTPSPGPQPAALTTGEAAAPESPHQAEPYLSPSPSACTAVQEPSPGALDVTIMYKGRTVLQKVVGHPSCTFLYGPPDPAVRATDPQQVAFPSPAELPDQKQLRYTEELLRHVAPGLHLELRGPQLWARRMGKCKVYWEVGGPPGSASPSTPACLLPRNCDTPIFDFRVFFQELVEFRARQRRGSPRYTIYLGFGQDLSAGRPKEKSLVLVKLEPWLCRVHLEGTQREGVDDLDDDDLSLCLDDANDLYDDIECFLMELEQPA
Oligonucleotide,fitted relative affinity [z-score]
GCCTAGCACCTAGATATCAGACTGGATTAGTGCTAGGTCTTGATTCGCTTGACGCTGCTG,0.114
GCCTAGCACGTCATTTACATTTTAGTAGTGTGCTAGGTCTTGATTCGCTTGACGCTGCTG,1.53
GCCTAGCACTTAGGAATCGGTCTCGGTTAGTGCTAGGTCTTGATTCGCTTGACGCTGCTG,0.364

# Study 2
# Target: Sal-like protein 4, full length isoform B (SALL4, Homo sapiens, UniProt Q9UJQ4-2, residues 1-616)
# Technique: universal PBM
# Form: double-stranded DNA, one strand shown
# Matrix: in vitro
# Concentration: not given
# Notes: 8-mer, flanks averaged, mean of replicates
# Direction: higher = stronger binding
Oligonucleotide,E-score
GCCCGAAA,-0.0932
GTGAAAGA,0.187
CGATTGAA,-0.0772
AGTTTGCG,-0.173
CCTGTAGC,-0.109

# Study 3
# Target: Histone acetyltransferase KAT6A, winged helix 2, GST fusion (KAT6A, Homo sapiens, UniProt Q92794, residues 85-181)
# Technique: protein binding microarray
# Form: double-stranded DNA, one strand shown
# Matrix: in vitro
# Concentration: not given
# Notes: 8-mer, flanks averaged, mean of 2 arrays, mostly near background
# Relative to: not given
# Direction: higher = stronger binding
# Target sequence (chain): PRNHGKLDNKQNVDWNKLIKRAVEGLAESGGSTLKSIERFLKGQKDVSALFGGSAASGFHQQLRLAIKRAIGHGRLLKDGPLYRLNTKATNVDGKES
Oligonucleotide,E-score
AAGTCGTG,-0.0748
AAGGACGA,0.0272
GATGCGTA,-0.087
ACGGAACG,-0.0144

# Single results of other studies
Molecule,target,test,system,setting,how to read,measurement,result
"PhoQ, residues 284 288 289 292 302 303 ASTSDA","PhoP, residues 12 14 15 18 19 QWHVF (Escherichia coli, UniProt P23836)","Sort-seq, item: YFP reporter",E. coli,"PhoQ-PhoP variant library, together with: 10 µM Mg2+","relative to: high Mg2+ state, higher = stronger signaling",fold induction,16.2

# Excerpt of the above (study 2):
Oligonucleotide,E-score
GTGAAAGA,0.187
